Assay results pooled from the literature.
Compare with care: the assays were run in different laboratories. ± gives the spread as reported. Values after ≈ are worked out from the molar mass of the structure shown.

Structure (SMILES)	tested on	test	system	conditions	endpoint	result
CCOc1ccc2cc(-c3nn(C(C)(C)C)c(N)c3C(N)=O)ccc2c1	Plasmodium yoelii			0.1 µM, gametocytes	inhibition	55%
N#CC1=C2N=C(N)c3ccccc3N2C2=C(C(=O)CCC2)C1c1ccc(-c2ccccc2)cc1 (stereo not drawn)	HMC3 human microglial cells	pHrodo-myelin phagocytosis, activator		48 h	EC50	2200 nM
O=C(Nc1ccc2c(O)cc(S(=O)(=O)O)cc2c1)Nc1ccc2c(O)cc(S(=O)(=O)O)cc2c1	calf thymus histone H3	binding, SPR			Kd	671 nM
N#Cc1ccc(-c2csc(CNC(=O)C34CC(CN(C(=O)COCCF)C3)C4)n2)cc1	Plasmodium falciparum		3D7	72 h, asexual blood stage	EC50	60 ± 18 nM
O=C(Nc1ccc(-c2cnc3ccccc3c2)cc1)C1CCN(Cc2cccnc2)CC1			sodium phosphate buffer, 1% DMSO	pH 7.4	solubility	63 to 125 µM (≈ 26.6 to 52.8 µg/mL)
Cc1cc(OCc2nnc(SC3CCCC3)n2-c2cccnc2)ccc1-c1ccc(S(C)(=O)=O)cc1	MDA-MB-231				CC50	6350 nM
CC(C)(NC(=O)O[C@@H]1CN2CCC1CC2)c1csc(-c2ccc(F)cc2)n1	other methyltransferases			50 µM	inhibition	< 50%
NS(=O)(=O)NC[C@H]1COc2cc(F)ccc2O1		maximal electroshock seizure	mouse	oral	ED50	160 to 200 mg/kg
O=C(Nc1ccc(-c2ccc3ccccc3n2)cc1)C1CCN(Cc2ccc(F)cc2)CC1			sodium phosphate buffer, 1% DMSO	pH 7.4	solubility	31 to 63 µM (≈ 13.6 to 27.7 µg/mL)
CC(C)(C)n1nc(-c2cnc3cc(OC4CC4)ccc3c2)c(C(N)=O)c1N	Plasmodium yoelii			0.1 µM, gametocytes	inhibition	31%
C(#Cc1c[nH]c2nccc(-c3ccncc3)c12)c1cccnc1			mouse C57BL/6, male	oral, 20 mg/kg	Cmax	1070 ± 663 ng/mL
N#Cc1ccccc1	nitrilase (Rhodococcus rhodochrous, UniProt A4LA85, Y142V)	ammonia release		pH 7.5, 25 °C, 10% methanol	Km	490 ± 30 µM

For quick reference, copied from above:
Structure (SMILES)	tested on	test	system	conditions	endpoint	result
O=C(Nc1ccc2c(O)cc(S(=O)(=O)O)cc2c1)Nc1ccc2c(O)cc(S(=O)(=O)O)cc2c1	calf thymus histone H3	binding, SPR			Kd	671 nM
